Published values pooled from the literature.
Parts stem from different laboratories: compare values within a part only. Substitutions count along the parent as printed.

Sample 1 — target: CCNE2, cyclin fold, Cln2 fusion (human); technique: yeast growth competition, sequencing; sample: yeast; setting: strong parent motif; baseline: not given; direction: higher = stronger binding
Starting sequence: viral docking peptide; KKVKRRLFETREL; partner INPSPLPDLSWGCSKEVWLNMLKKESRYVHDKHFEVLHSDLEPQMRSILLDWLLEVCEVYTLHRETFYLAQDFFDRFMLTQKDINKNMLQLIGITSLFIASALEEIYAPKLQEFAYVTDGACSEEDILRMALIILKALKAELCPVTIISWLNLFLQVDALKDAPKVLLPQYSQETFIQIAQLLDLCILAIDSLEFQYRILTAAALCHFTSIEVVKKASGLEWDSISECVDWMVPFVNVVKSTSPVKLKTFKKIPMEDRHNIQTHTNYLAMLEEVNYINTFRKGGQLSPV
Variant	normalised enrichment score
K2A	4.2
R11A	5.13
F8A	0.491
K1A	4.95
R5K F8L	0.645

Sample 2 — target: inorganic phosphate, free oxyanion; technique: microfluidic competitive inhibition; sample: in vitro, cell-free expressed; tested at: not given; direction: lower = stronger binding
Setting: derived from inhibition constants, unchanged parent 615000 nM
Starting sequence: PafA, mature enzyme, eGFP fusion (Elizabethkingia meningoseptica, UniProt Q9KJX5); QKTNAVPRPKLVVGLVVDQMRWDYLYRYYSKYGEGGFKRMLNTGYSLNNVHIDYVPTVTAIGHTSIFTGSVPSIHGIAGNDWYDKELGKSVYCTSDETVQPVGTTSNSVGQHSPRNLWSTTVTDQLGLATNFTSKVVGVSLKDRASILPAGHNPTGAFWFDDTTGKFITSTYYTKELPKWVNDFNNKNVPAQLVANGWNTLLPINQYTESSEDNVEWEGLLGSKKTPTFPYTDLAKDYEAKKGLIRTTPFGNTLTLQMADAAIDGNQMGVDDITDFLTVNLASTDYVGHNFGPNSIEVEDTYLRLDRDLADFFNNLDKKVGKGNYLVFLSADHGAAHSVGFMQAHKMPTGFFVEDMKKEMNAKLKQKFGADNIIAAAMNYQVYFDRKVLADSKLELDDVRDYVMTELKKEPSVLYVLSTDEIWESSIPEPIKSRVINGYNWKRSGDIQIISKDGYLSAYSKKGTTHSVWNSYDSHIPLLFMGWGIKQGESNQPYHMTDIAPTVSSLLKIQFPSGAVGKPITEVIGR
Variant	phosphate dissociation constant
K224V	610 µM
N280G	252 µM
D420V	619 µM
Q510V	430 µM
L11V	619 µM
F341G	305 µM
T169G	536 µM
Y302V	1010 µM

Sample 3 — observed: binding; technique: phage display NGS; molecule type: peptide; baseline: input library
Target: UDP-N-acetylglucosamine--peptide N-acetylglucosaminyltransferase 110 kDa subunit (OGT, Homo sapiens, UniProt O15294)
Construct (O15294 1-1046): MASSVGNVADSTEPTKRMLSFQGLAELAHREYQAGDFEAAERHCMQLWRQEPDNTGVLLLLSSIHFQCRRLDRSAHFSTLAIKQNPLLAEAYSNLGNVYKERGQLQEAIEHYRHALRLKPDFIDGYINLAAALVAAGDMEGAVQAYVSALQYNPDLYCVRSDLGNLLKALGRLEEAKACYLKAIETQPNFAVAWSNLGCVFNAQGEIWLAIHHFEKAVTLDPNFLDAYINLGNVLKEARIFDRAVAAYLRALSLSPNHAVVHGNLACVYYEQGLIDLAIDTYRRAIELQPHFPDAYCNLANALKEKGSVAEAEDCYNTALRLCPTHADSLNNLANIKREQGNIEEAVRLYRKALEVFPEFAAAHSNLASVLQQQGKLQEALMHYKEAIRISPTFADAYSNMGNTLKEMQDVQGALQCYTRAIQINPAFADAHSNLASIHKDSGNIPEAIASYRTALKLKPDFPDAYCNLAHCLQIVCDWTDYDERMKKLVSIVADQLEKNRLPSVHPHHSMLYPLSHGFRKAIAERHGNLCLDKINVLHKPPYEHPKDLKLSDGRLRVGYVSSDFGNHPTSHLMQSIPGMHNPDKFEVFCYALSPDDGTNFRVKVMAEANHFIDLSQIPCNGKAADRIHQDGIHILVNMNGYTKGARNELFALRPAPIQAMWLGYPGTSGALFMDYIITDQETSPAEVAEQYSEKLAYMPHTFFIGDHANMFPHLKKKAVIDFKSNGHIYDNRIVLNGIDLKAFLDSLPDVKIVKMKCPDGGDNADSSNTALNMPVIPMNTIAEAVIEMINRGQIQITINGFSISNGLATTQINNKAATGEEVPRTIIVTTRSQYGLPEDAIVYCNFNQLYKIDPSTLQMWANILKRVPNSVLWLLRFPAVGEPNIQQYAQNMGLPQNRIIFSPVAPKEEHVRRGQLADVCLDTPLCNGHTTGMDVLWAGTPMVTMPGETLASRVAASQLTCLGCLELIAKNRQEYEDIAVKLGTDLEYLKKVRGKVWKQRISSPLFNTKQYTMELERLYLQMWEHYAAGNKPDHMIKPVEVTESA
Molecule	minimum log2 enrichment ratio
YTDNEEIIFHHHQVA	1.89
HLHQDHISHPFEHEA	2.52
HEPKHAEMESYYNIH	1.38
VTSENHPHVYMYYHV	1.76
SMFYPMYRIDIPEKS	3.66
HLQTVHSHSYYLRS	1.21
FKDGRHAERHFFHQH	3.24
HQQHDHHKDNNGQFM	1.45

Single results of other studies
Structure (SMILES)	cell line	assay	conditions	how to read	measurement	result
C[C@]12CC[C@H](O)C[C@@H]1CC[C@@H]1[C@@H]2CC[C@]2(C)C(=O)CC[C@@H]12	mouse MPNST tumor cells	high-content nuclear imaging, measured: cell number	10 µM, 12 h, mean of 2 replicates	baseline: plate mean, higher = more cells	nuclei count	0.963 z-score
